Results from different studies.
Protocols differ between the studies behind these lines. “And” joins repeats or separate records; there may be more than shown. ± gives the spread as reported.
Sequence of UniProt Q16706 (whole entry, looked up): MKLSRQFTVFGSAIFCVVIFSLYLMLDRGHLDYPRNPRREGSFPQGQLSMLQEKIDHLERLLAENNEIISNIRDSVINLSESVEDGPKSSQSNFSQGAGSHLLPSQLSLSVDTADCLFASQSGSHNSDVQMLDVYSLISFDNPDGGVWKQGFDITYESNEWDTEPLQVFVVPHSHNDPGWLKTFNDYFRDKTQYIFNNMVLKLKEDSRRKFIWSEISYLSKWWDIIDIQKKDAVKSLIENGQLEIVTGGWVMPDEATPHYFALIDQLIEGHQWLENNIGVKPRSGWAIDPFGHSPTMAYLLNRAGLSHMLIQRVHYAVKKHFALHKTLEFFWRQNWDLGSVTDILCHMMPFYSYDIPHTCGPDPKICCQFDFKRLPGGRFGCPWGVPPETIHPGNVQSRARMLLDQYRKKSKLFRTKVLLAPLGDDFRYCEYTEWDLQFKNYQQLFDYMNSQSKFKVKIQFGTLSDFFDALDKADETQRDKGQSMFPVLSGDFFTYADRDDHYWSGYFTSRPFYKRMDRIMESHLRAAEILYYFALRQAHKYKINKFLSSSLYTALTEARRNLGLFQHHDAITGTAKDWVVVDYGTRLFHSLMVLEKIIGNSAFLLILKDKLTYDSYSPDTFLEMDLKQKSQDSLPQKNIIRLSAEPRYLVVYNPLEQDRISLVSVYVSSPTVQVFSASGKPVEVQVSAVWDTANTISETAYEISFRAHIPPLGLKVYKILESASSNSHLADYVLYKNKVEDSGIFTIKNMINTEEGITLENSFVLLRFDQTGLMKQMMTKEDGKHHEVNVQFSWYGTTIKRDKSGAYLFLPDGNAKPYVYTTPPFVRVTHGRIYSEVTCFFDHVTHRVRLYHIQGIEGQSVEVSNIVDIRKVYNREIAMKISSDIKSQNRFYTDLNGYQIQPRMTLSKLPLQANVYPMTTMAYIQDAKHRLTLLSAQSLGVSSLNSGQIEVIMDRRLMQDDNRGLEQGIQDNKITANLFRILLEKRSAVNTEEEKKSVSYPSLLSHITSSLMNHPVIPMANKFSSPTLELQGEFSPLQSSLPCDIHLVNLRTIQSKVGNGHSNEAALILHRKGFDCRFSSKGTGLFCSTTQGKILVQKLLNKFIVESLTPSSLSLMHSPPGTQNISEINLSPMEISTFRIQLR
Sequence of UniProt Q13393 (whole entry, looked up): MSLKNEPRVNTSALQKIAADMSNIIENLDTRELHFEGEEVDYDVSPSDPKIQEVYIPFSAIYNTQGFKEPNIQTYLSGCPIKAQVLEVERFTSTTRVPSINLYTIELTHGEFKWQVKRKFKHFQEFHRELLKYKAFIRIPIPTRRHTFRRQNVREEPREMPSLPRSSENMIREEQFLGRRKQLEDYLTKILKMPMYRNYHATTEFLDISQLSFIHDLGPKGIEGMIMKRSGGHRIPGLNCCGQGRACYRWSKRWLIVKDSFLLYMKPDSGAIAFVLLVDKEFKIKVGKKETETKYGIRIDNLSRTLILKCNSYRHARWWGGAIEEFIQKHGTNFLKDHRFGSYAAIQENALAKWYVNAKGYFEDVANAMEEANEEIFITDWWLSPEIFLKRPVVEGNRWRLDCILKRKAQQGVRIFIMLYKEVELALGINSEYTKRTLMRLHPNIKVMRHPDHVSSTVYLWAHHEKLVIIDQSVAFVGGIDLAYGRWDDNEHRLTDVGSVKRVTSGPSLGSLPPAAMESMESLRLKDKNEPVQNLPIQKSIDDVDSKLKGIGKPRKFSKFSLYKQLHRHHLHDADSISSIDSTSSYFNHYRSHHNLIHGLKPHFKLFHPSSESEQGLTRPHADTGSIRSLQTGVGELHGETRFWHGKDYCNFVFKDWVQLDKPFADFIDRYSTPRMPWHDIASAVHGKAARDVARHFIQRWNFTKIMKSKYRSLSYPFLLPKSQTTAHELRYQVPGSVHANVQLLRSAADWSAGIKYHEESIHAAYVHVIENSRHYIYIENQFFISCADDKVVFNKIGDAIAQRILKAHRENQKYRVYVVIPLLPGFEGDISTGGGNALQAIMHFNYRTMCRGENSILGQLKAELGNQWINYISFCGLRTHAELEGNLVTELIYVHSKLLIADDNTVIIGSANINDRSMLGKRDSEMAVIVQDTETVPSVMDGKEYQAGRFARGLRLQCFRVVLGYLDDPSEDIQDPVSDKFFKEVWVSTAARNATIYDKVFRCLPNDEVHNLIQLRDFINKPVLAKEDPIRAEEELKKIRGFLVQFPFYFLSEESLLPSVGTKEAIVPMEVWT
Sequence of UniProt P27338 (whole entry, looked up): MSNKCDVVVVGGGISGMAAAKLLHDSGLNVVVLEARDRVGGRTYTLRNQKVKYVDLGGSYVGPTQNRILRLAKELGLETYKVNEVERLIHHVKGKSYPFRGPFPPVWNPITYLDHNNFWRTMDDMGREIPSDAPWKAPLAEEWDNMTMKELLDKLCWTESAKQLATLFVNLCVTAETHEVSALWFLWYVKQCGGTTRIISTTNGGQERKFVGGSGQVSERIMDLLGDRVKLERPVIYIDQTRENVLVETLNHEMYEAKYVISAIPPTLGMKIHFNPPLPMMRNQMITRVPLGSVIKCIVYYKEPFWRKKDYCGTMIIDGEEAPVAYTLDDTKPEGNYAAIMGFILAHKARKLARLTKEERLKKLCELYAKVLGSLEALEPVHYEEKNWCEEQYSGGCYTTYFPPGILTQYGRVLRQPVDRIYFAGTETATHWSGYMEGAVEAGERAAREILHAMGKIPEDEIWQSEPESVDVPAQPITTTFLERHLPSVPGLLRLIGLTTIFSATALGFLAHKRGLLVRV
Sequence of UniProt Q8E0N2 (whole entry, looked up): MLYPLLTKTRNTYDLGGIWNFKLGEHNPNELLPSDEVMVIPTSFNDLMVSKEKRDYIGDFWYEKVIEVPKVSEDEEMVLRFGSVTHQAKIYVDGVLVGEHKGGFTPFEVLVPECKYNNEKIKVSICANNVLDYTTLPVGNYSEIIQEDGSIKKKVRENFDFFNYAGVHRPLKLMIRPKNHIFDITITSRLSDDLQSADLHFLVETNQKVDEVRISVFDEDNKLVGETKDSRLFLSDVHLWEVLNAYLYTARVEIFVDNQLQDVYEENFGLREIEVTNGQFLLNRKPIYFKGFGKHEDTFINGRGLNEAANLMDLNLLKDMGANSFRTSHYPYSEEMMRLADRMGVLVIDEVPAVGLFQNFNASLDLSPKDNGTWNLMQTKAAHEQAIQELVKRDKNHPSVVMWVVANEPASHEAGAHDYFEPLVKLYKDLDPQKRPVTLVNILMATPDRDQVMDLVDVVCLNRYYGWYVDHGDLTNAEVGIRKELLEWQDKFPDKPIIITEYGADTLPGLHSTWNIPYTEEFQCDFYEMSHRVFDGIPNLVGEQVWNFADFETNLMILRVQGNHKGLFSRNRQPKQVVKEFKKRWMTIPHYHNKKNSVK
Sequence of UniProt Q96KQ7 (whole entry, looked up): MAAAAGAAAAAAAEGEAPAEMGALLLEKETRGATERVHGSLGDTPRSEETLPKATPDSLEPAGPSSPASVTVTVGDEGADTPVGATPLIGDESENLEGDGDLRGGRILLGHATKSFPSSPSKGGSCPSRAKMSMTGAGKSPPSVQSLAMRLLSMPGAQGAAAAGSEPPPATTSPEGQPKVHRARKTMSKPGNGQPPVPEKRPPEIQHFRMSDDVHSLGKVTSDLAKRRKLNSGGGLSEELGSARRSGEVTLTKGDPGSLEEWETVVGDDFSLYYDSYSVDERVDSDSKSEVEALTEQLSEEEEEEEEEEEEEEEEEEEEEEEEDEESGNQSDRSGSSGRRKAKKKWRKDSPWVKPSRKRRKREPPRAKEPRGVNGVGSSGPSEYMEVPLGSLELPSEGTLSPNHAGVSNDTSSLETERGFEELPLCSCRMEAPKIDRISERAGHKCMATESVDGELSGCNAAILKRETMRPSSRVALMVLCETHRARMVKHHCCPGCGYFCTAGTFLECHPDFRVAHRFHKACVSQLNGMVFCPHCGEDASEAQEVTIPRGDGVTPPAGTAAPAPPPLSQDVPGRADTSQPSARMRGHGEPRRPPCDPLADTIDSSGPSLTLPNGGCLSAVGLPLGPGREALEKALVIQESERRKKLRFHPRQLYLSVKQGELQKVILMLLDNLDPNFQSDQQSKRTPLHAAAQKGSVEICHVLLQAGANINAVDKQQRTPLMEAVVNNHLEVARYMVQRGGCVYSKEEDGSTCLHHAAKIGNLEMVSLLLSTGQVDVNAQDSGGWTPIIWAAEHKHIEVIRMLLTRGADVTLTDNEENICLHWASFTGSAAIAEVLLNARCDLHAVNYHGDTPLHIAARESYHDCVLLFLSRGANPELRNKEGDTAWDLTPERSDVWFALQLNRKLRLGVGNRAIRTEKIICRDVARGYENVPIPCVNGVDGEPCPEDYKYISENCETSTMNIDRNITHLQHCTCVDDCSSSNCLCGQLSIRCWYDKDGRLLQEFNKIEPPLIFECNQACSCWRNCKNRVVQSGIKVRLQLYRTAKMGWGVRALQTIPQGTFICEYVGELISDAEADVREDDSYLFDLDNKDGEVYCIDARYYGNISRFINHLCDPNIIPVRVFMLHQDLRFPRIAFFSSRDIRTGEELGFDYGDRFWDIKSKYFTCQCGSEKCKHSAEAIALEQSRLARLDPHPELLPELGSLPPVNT

SMILES | target | assay | test system | setting | IC50
C1CCc2c(c(N3CCOCC3)nc3sc4c(N5CCOCC5)nnnc4c23)C1 | Beta-glucuronidase (Streptococcus agalactiae serotype V, UniProt Q8E0N2) |  | Streptococcus agalactiae |  | > 100 µM
Fc1cccc(COc2ccc(/C=N/NC(=S)Nc3ccccc3)cc2)c1 | Amine oxidase [flavin-containing] B (MAOB, Homo sapiens, UniProt P27338) | enzyme activity, inhibitor, absorbance |  |  | 12.2 µM
NC[C@@H]1[C@@H](O)[C@@H](O)[C@H]2[C@@H](O)CCN21 | Alpha-mannosidase 2 (Homo sapiens, UniProt Q16706) | enzyme activity, inhibitor, 4-MU fluorogenic |  | with: Man-α-4MU 5 mM | > 200 µM
CC(C)C(=O)Nc1ccccc1-c1nn[nH]n1 | Metallo-beta-lactamase VIM-2 (VIM-2, Escherichia coli, UniProt Q5U7L7) | enzyme activity, inhibitor, fluorescence |  | with preincubation | > 100 µM
C=C1C(=O)N[C@@H](C)C(=O)N(C)[C@@H](C)C(=O)N[C@@H]([C@H](OC(=O)[C@@H](NC(=O)CC)[C@H](O)C(C)C)C(C)C)C(=O)N(C)[C@@H]([C@@H](C)OC)C(=O)O[C@H](C(C)C)[C@H](NC(C)=O)C(=O)O[C@H](Cc2ccccc2)C(=O)N1C | Guanine nucleotide binding protein q polypeptide (Cricetulus griseus, UniProt Q3HR10) | inositol phosphate, antagonist, TR-FRET |  |  | 0.0324 µM
C[C@]1(COC(=O)Cc2ccc(O)c(O)c2)[C@H](C(=O)O)N2C(=O)/C(=C/c3ccccn3)[C@H]2S1(=O)=O | Beta-lactamase OXA-23 (OXA-23, Acinetobacter baumannii, UniProt Q9L4P2) | inhibitor |  | with: nitrocefin | 0.012 ± 0.008 µM
CN(C)CP(=O)(O)O | Urease subunit alpha (Sporosarcina pasteurii, UniProt P41020) | enzyme activity, inhibitor, indophenol colorimetric |  | 20 min, pH 7.0, 37 °C, with: 50 mM urea | 49 ± 1.7 µM
NC[C@@H](CC[C@H](N)C(=O)O)C[C@H]1O[C@@H](n2cnc3c(N)ncnc32)[C@H](O)[C@@H]1O | Histone-lysine N-methyltransferase EHMT2 (EHMT2, Homo sapiens, UniProt Q96KQ7) | enzyme activity, inhibitor, radiometric |  |  | > 50 µM
O=C(O)/C=C/c1ccc(O)cc1 | alpha-glucosidase | inhibitor |  |  | 96 µg/mL and 108 µg/mL
CC(C)CC(O)(CC(C)C)c1cn(C(=O)N2CCCC2)nn1 | Acylamino-acid-releasing enzyme (Apeh, Rattus norvegicus, UniProt P13676) | inhibitor, competitive ABPP | rat B103 cell proteome | 30 min | 0.007 µM
O=C(O)CNC(CO)(CO)CO | IMP-28 metallo-beta-lactamase | enzyme activity, inhibitor, FC5 fluorescent substrate |  | 60 pM enzyme, 1 µM ZnSO4 | > 200 µM
COc1ccc2nc(C)cc(OCC(=O)Nc3cc(C)cc(C)c3)c2c1 | Cytochrome P450 3A4 (CYP3A4, Homo sapiens, UniProt P08684) | enzyme activity, inhibitor |  | with: VR substrate | 16 µM
O=C(NCCN1CCC2(CC1)C(=O)NCN2C(=O)C1CCC1)c1ccc2ccccc2c1 | Phospholipase D1 (Homo sapiens, UniProt Q13393) | enzyme activity, inhibitor |  |  | 4 µM

Excerpt of the above:
SMILES | target | assay | test system | setting | IC50
COc1ccc2nc(C)cc(OCC(=O)Nc3cc(C)cc(C)c3)c2c1 | Cytochrome P450 3A4 (CYP3A4, Homo sapiens, UniProt P08684) | enzyme activity, inhibitor |  | with: VR substrate | 16 µM
CC(C)CC(O)(CC(C)C)c1cn(C(=O)N2CCCC2)nn1 | Acylamino-acid-releasing enzyme (Apeh, Rattus norvegicus, UniProt P13676) | inhibitor, competitive ABPP | rat B103 cell proteome | 30 min | 0.007 µM
